# Measured values of several laboratories.
# A part holds a random share of what one study measured. Positions count from the first letter of the parent shown.

# Set 1
# Target: Ras GTPase-activating protein-binding protein 1, full length (G3BP1, Homo sapiens, UniProt Q13283)
# Sequence of UniProt Q13283 (whole entry, looked up): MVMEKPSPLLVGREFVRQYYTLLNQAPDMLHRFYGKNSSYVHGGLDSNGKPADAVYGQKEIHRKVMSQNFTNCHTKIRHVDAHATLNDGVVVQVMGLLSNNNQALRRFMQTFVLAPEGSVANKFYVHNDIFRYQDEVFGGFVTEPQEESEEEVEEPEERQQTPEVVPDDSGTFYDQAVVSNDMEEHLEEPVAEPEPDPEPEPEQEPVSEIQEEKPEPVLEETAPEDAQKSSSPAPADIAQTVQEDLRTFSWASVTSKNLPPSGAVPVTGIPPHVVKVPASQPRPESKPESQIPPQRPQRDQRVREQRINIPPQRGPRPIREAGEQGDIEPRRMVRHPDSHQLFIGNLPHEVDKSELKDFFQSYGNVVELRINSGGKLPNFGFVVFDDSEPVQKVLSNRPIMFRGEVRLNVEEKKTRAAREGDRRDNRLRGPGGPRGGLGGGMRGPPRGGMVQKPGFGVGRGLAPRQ
# Technique: RNA Bind-n-Seq
# Molecule type: RNA
# Matrix: in vitro
# Tested at: 200 nM
# Setting: whole 134-nt RNA, ends assumed
# Added: 150 mM KCl
# Relative to: input library
# Reading: higher = stronger binding
# Constant ends, left off below: GGGAGUUCUACAGUCCGACGAUC … UGGAAUUCUCGGGUGUCAAGG
Strand,log2 enrichment
UCCUGUGCUACACAUCGUAUGUACCGAAUCGGGGAAAAAGGGGAAAAAGGAAAAAGGGGAAAGUAUUAUGUUACGCCGUUCGGAUCUGCA,-0.233
CCUGUGCUACACAUCGUAUGUACCGAAUCGGGUUUUUUGGGGUUUUUUGGUUUUUUGGGGAAAGUAUUAUGUUACGCCGUUCGGAUCUGC,-0.731
CAAGUCCUGUGCUACACAUCGUAUGUACCGAAUCGGGGUGGGGAAAGGGGUGGGGAAAGUAUUAUGUUACGCCGUUCGGAUCUGCACUUC,1.36
CAAGUCCUGUGCUACACAUCGUAUGUACCGAAUCGGCCCGGGGCCCGGGGCCCGGGAAAGUAUUAUGUUACGCCGUUCGGAUCUGCACUU,-0.797
UAACUUUAGAGGAGGAUCUGAUGGAUAUGGCAGUGGACGUGGAUUUGGGGAUGGCUAUAAUGGGUAUGGAGGAGGACCUGGGGGUGGCAA,0.201
AAAAGACAACACGCACCCACACAGACACAGAGGGAAGGGGUUGGGAUGGGGACAGGGUGCACAGCAGGGCGGGGUAGGACCCCAGCCCCU,1.78

# Set 2
# Target: Sal-like protein 4, full length isoform B (SALL4, Homo sapiens, UniProt Q9UJQ4-2, residues 1-616)
# Technique: universal PBM
# Molecule type: double-stranded DNA, one strand shown
# Matrix: in vitro
# Tested at: not given
# Setting: 8-mer, flanks averaged, mean of replicates
# Reading: higher = stronger binding
# Target sequence (chain): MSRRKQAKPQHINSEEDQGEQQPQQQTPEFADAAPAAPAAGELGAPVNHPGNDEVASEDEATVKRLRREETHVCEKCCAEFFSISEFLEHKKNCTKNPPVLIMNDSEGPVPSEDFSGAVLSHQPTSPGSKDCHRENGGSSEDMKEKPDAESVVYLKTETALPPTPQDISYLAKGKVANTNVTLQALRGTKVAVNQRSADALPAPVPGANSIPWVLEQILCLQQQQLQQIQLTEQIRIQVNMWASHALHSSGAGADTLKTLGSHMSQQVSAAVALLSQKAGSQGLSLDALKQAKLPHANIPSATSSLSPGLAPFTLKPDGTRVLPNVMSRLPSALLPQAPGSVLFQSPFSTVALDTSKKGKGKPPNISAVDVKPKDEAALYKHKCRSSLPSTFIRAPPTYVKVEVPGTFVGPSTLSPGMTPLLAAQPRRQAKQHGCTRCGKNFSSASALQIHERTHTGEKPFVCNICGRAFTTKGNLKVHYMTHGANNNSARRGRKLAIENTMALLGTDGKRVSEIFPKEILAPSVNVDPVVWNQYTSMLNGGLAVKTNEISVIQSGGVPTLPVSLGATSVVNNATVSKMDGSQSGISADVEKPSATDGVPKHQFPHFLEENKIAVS
Strand,E-score
ACACTAAT,0.177
CACCACCG,-0.33
ACCCAGCC,-0.306
CATAATAG,0.337
AAGAAATA,0.357
AGACCAAC,-0.146
GGTTCCAC,-0.145
ACACAGTC,-0.0135
AGTGCGTA,0.0137
CTACGGCA,-0.0917
AATGTACG,0.035
CTCTCACC,-0.203
AGAATAAT,0.304

# Set 3
# Target: Histone acetyltransferase KAT6A, both winged helices, GST fusion (KAT6A, Homo sapiens, UniProt Q92794, residues 1-181)
# Technique: protein binding microarray
# Molecule type: double-stranded DNA, one strand shown
# Matrix: in vitro
# Tested at: not given
# Setting: 8-mer, flanks averaged, mean of 2 arrays, mostly near background
# Relative to: not given
# Reading: higher = stronger binding
# Construct (chain): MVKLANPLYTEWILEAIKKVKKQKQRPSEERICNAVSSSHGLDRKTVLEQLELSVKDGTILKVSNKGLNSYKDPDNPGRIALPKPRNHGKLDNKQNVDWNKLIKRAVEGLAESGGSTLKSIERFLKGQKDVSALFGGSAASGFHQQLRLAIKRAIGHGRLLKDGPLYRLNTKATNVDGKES
Strand,E-score
ACGACCAC,-0.182
CGCACACA,0.162
AAGCAATT,0.0806
ATCAAGGA,-0.0862
CTCGCCAA,-0.003
GATCCCGA,0.111
CTCACTTA,-0.14
AACTTTAT,-0.0853
TCGATCCA,-0.0184
AATACAAG,-0.0673
CTACAGGC,-0.00242
CCATATGG,0.0317
ACCTGGTC,-0.102
CCGCCTAC,0.149

# Set 4
# Target: Interferon regulatory factor 7, full length, phosphomimetic (IRF7, Homo sapiens, UniProt Q92985, residues 1-503, S471D/S472D/S475D/S476D/S477D/S483D/S484D/S487D)
# Sequence of UniProt Q92985 (whole entry, unmodified, looked up): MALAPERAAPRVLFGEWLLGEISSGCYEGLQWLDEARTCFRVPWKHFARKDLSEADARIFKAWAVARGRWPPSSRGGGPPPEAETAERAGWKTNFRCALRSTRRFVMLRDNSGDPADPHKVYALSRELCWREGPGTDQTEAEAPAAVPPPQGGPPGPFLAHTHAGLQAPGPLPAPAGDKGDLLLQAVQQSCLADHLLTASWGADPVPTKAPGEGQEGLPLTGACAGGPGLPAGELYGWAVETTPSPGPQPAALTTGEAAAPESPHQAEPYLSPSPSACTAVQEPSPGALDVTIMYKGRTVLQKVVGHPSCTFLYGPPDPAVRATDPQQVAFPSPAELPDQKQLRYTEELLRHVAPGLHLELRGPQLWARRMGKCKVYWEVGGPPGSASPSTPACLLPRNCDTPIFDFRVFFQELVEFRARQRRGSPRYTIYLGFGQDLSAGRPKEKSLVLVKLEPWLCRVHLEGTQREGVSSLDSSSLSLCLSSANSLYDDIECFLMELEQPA
# Technique: protein-binding microarray
# Molecule type: double-stranded DNA, one strand shown
# Matrix: in vitro
# Tested at: 2200 nM top
# Setting: 60-bp whole probe
# Added: salmon DNA 0.4 mg/ml
# Relative to: random background probes
# Reading: higher = stronger binding
# Constant ends, left off below: GCCTAGCAC … GTCTTGATTCGCTTGACGCTGCTG
Strand,fitted relative affinity
TCAAGTCCCACATCTCTGACTGTGCTA,0.946 z-score
GACGGTCTCGGTCTCCGGACGTGCTAG,-0.0161 z-score
CACTATTTAAGGCCTATGCACGTGCTA,0.203 z-score
GACGGTTACCTTTCCCTGACGTGCTAG,1.47 z-score
TTAGGTTTCAGTTCCGGTTAGTGCTAG,4.41 z-score
TTAGGTTTCGATTTCGGTTAGTGCTAG,13.2 z-score
GACGATATCAGTCTCTAGACGTGCTAG,0.273 z-score
GACGGTATCGGACTGAGGACGTGCTAG,-0.243 z-score
GACGGTTTCGGTATCGTGACGTGCTAG,7.36 z-score
ACAAATACAAGTTTCTCCTTGTGCTAG,1.4 z-score
ATAGGTTTCCTACTGCTTTAGTGCTAG,1.14 z-score
GACGGACTGGACACTTGGGACGTGCTA,-0.645 z-score
GACGGTTTCGGGTTTGGGGACGTGCTA,8.71 z-score
TTAGAACTGGGGAATCGATTAGTGCTA,-0.319 z-score
GACGATTTCAGTCTCGTGACGTGCTAG,0.863 z-score

# Set 5
# Target: CCND3, cyclin fold, Cln2 fusion (human)
# Technique: yeast growth competition, sequencing
# Matrix: yeast
# Setting: weak parent motif
# Relative to: not given
# Reading: higher = stronger binding
# Starting sequence: WEE1 docking peptide (human); HKTFRKLRLFDTP
Substitution,normalised enrichment score
HKTFRCLRLFDTP [K6C],0.127
HKTFKKLRLFDTP [R5K],0.152
HKTFRKLRLFDTT [P13T],0.279
FKTFRKLRLFDTP [H1F],0.107
HCTFRKLRLFDTP [K2C],0.114
HKTLRKLRLFDTP [F4L],0.0186
VKTFRKLRLFDTP [H1V],-0.0609
HKTFRKLRLFDTK [P13K],0.143
HKTFRWLRLFDTP [K6W],0.141
HKTFRKLRFFDTP [L9F],0.0813
HKTFRKLRLADTP [F10A],0.0971
HHTFRKLRLFDTP [K2H],0.0988

# Set 6
# Target: UBE2L6 UBC core domain (UniProt O14933)
# Technique: yeast two-hybrid
# Matrix: yeast
# Setting: mostly zero background
# Relative to: not given
# Reading: higher = stronger interaction
# B1: RNF187 RING domain (UniProt Q5TA31); chain ALPAGPAEAACALCQRAPREPVRADCGHRFCRACVVRFWAEEDGPFPCPECADDCWQRAVEP
# B2: TRIM54 RING domain (UniProt Q9BYV2); chain SMDNLEKQLICPICLEMFSKPVVILPCQHNLCRKCANDVFQASNPLWQSRGSTTVSSGGRFRCPSCRHEVVLDRHGV
# B3: RNF122 RING domain (UniProt Q9H9V4); chain AKKLQLYGQTCAVCLEDFKGKDELGVLPCQHAFHRKCLVKWLEVRCVCPMCNKPIASPSEAT
# Residues (chain): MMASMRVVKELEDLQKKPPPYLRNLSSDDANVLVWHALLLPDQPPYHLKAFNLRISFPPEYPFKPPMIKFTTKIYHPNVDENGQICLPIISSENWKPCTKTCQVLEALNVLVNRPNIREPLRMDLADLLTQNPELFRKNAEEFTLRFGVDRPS
Molecule,lacZ reporter activity
B1 (RNF187 RING domain),0
B2 (TRIM54 RING domain),0
QVQSRTKIEECVVCSDKKAAVLFQPCGHMCACENCANLMKKCVQCRAVVERRVPFI (MIB1 RING domain (UniProt Q86YT6)),0
B3 (RNF122 RING domain),2440

# Set 7
# Target: RING finger protein unkempt homolog, zinc fingers 1-6, GST-SBP tag (UNK, Homo sapiens, UniProt Q9C0B0, residues 30-357)
# Sequence of UniProt Q9C0B0 (30-357, looked up): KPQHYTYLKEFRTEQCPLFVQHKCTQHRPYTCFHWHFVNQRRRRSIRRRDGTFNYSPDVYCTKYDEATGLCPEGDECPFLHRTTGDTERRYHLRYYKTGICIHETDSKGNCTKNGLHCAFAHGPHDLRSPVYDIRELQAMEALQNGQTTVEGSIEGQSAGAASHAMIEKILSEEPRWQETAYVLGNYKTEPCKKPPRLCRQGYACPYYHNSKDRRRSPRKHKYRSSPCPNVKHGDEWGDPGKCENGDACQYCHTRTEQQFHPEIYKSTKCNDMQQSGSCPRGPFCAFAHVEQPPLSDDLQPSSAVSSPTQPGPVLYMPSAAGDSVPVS
# Technique: RNA Bind-n-Seq
# Molecule type: RNA
# Matrix: in vitro
# Tested at: not given
# Setting: RNA with constant flanks, human and mouse sites, ends assumed
# Relative to: input RNA pool
# Reading: higher = stronger binding
# Constant ends, left off below: GGGAGUUCUACAGUCCGACGAUC … CAACAGAGGAUUGAGCAUCA
Strand,bound/input enrichment
AAAGUGAAACUGGCAGCUGUGGAUGCCACCAUGAAUCAGGUUCUGGCCAGCCGAUACGGGAUUAAAGGAUUCCCUACAAUCAAGAUAUUUCAGAAAGGCGAGUCUCCUGUGGACUAUGAU,0.135 ratio
AGACGACGAGAAUAUCAAUUAUCUGACUCUACCAAAUACUAUCUUAAUGACUUGGACCGCGUAGCUGACCCUGCCUACCUGCCUACGCAACAAGAUGUGCUUAGAGUUCGAGUCCCCACC,0.326 ratio
GUUGAUGAAAUGAUCAGGGAAGCAGAUAUUGAUGGUGAUGGUCAAGUAAACUAUGAAGAGUUUGUACAAAUGAUGACAGCAAAGUGAAGACCUUGUACAGAAUGUGUUAAAUUUCUUGUA,0.204 ratio
CAGAUUGGAAAGAUGAGAUAUGUCAGUGUUCGGGACUUCAAAGGAAAAAUUCUAAUUGAUAUUAGAGAAUAUUGGAUGGAUUCAGAAGGUGAAAUGAAACCAGGAAGAAAAGGUAUUUCU,0.206 ratio
ACAUCUUAUGAAAUGCUUAUUAAAGAGAAGUCUGUGUUCAAAAAAUUUAAUUGGAGAUACUUAGUAAUAGAUGAAGCUCACAGGAUCAAAAAUGAAAAAUCUAAGUUGUCAGAAAUAGUG,4.37 ratio
UUACUGCACGUCAGUUUUUAUAAGGCACUUCAAGUAGUUUUGUGGAAAGAGAUGAGGUUUUAGUUAGAAUACAAUUGCCUUUUAAUUCAUGUUUUAAGAAAUUAAUGUUAGAAGUAAAAG,2.67 ratio
UAAAUCCAUUUGUAAGCAUUUAUCCCAUAUAUUUUAAAUUCAAGAAAAAUUGUGUUUAUCUUUAGAAUUUUGUAUUCAAUACUUUAUGUACUAUGUGACUCAUGCUUCUGGAUAAAUAAA,11.7 ratio
AGGCAUGAGCUCUUGGCAGGAGUGGGCUCUGAGCAGUUGUUAUAUUCAUUCUUUAUAAACCAUAAAAUAAAUAAUCUCAUCCCCAAACUGUAGUAAUUGUUACAAUUUUCUAUUUAAAAA,2.82 ratio
GAGAAUCAGGAAUCAUUGAGAUCUCUGGGAGCAUGGAACCUGGAGAAUUUGAGAUCUCCAGAGGAGGUAGACAAGGAAAGUCAAAGGAAUCUGGAAGAGGAAGAGAACCUGGGAAAGGGA,0.511 ratio
AAAGAUAGGCUCUAUUGUGAAAAGGAAAAUGACCCCAAACGACGCUCUUGUCAGACUGCAUUAGUUGAAAUUUUGGAUGUAAUAGUUCGUUCUUUUGCUCCCAUUCUUCCUCACCUGGCU,0.842 ratio
CUCAUGUAUCUACUAGCAUAUCCACAAAAACCCAUGGUUAAGACAAAAACCAUUGAAUUGAUAGAAUUUGAGAAACUGCCAGCUGGACAGAAUGCAACAGUUGCUGUGAUGAGCUAUAGU,0.77 ratio
